# Results of several laboratories.
# Compare with care: the assays were run in different laboratories.
Substance,cell line,assay,system,setting,how to read,measurement,value
C=C(C[C@H](N)C(=O)O)C(=O)Nc1ccccc1,SK-BR-3 cells,cytotoxicity,,24 h,baseline: vehicle,lowest significantly active concentration,100 µM
COc1ccccc1/C=N/N=C1\C(=O)Nc2ccccc21,HUVEC,MTT,,"24 and 48 h, 50% cell death",,cytotoxic concentration,> 100 µg/mL
CN(C)N=O,HepaRG 2D,cell viability,,"concentration not given, 24 h",baseline: vehicle,ATP level,85.6%
H-HGLASTLTRWAHYNALIRAFGGG-NH2 (C-amide),SH-SY5Y,fluorimetry,,"5 µM, 2 h, serum-free",,internalized peptide,80 to 90%
CC(C)C[C@H](NC(=O)[C@H](C)NC(=O)CNC(=O)[C@@H](NC(=O)[C@H](CC(C)C)NC(=O)[C@H](CCCCN)NC(=O)[C@H](CCCCN)NC(=O)[C@H](CC(C)C)NC(=O)[C@H](CC(C)C)NC(=O)[C@H](CCCCN)NC(=O)[C@H](CC(C)C)NC(=O)[C@H](CC(C)C)NC(=O)[C@@H](N)CCCCN)C(C)C)C(=O)NCC(N)=O,human erythrocytes,,,"1 h, 37 °C, hemolysis ≤5%",,minimal hemolytic concentration,32 µM
CC(C)C[C@H](NCc1ccc(-c2ccccc2)cc1)C(=O)N[C@@H](Cc1c[nH]c2ccccc12)C(=O)NC(C)(C)C,Vero,"cell morphology, microscopy",,5 (unit not given),,minimum cytotoxic concentration,20 µM
COC(=O)[C@H](NP(=O)(OCCOCn1cnc2c(=O)[nH]c(N)nc21)Oc1cccc2ccccc12)C(C)C (stereo partly shown),HEL,altered cell morphology,,,,minimal cytotoxic concentration,> 100 µM
CCOCN(C(=O)CCl)c1c(C)cccc1CC,HEK293,neutral red uptake,,"0.22 µg/mL, 24 h, compound pretreated 2 h at 23 °C with UV 365 nm",baseline: 23 °C without UV,cell viability increase,~48%
CC[C@H](C)[C@H](NC(=O)[C@H](CC(=O)O)NC(=O)[C@H](Cc1ccccc1)NC(=O)[C@H](CC(C)C)NC(=O)CN)C(=O)N[C@H](C(=O)N[C@@H](CCCCN)C(=O)N[C@@H](CCCCN)C(=O)N[C@H](C(=O)N[C@H](C(=O)NCC(=O)N[C@@H](C)C(=O)N[C@@H](CC(C)C)C(=O)N[C@@H](CCCCN)C(N)=O)C(C)C)C(C)C)C(C)C,human erythrocytes,,,"1 h, 37 °C, hemolysis ≤5%",,minimal hemolytic concentration,2 µM
CCCCN(CCCC)N=O,"HepaRG, 3D spheroids",,,"highest tested concentration, 24 h, plus 5 days, with: hEGF 100 ng/mL",baseline: vehicle,γH2A.X fold increase,1.5 to 1.8 fold
COc1cccc2c1C(=O)c1c(O)c3c(c(O)c1C2=O)C[C@@](O)(C(=O)CO)C[C@@H]3O[C@H]1C[C@H](N)[C@H](O)[C@H](C)O1,MCF7/ADR,flow cytometry,isolated mitochondria,10 µg/mL equivalent,,mitochondrial distribution,< 5%
O=NN1CCN(C2CCCC2)CC1,"HepaRG, 3D spheroids",flow cytometry micronucleus,,"highest tested concentration, 24 h, plus 6 days hEGF",baseline: vehicle,relative survival,73.7%
CC(O)[C@@]12SS[C@]3(C(=O)N1C)[C@@H](O)[C@]1([C@@]45c6ccccc6N[C@@H]4N4C(=O)[C@]6(C)SS[C@]4(C(=O)N6C)[C@H]5O)c4ccccc4N[C@@H]1N3C2=O (stereo partly shown),HT-29,"cell growth or viability, SRB",,,,IC50,10 nM
CC[C@H](C)[C@H](NP(=O)(OCCOCn1cnc2c(=O)[nH]c(N)nc21)Oc1ccccc1)C(=O)OCc1ccccc1 (stereo partly shown),HEL,altered cell morphology,,,,minimal cytotoxic concentration,> 100 µM
CCN(CC)N=O,"HepaRG, 3D spheroids",flow cytometry micronucleus,,"highest tested concentration, 24 h, plus 6 days hEGF",baseline: vehicle,relative survival,84.1%
CN1c2ccc(-c3ccc(C#N)cc3)cc2[C@H]2[C@H](CCN2C(=O)c2cccc(F)c2)[C@@H]1CO,"HEp-2, uninfected",,,,,CC50,22000 nM
Cc1[nH]ccc2c1[nH]c1cc(=O)ccc12,H4 cells,"nuclear area and membrane integrity, high content imaging",,72 h,,lowest cytotoxic concentration,> 10 µM
CC[C@H](C)[C@H](NC(=O)CN)C(=O)NCC(=O)N[C@@H](C)C(=O)N[C@H](C(=O)N[C@@H](CC(C)C)C(=O)N[C@@H](CCCCN)C(=O)N[C@H](C(=O)N[C@@H](CC(C)C)C(=O)N[C@H](C(=O)N[C@H](C(=O)NCC(=O)N[C@@H](CC(C)C)C(=O)N1CCC[C@H]1C(=O)N[C@@H](C)C(=O)N[C@@H](CC(C)C)C(=O)N[C@H](C(=O)N[C@@H](CO)C(=O)N[C@@H](Cc1c[nH]c2ccccc12)C(=O)N[C@H](C(=O)N[C@@H](CCCCN)C(=O)N[C@@H](CCCNC(=N)N)C(=O)N[C@@H](CCCCN)C(=O)N[C@@H](CCCNC(=N)N)C(=O)N[C@@H](CCC(N)=O)C(=O)N[C@@H](CCC(N)=O)C(N)=O)[C@@H](C)CC)[C@@H](C)CC)[C@@H](C)O)[C@@H](C)O)C(C)C)C(C)C,rat erythrocytes,,,"concentration not given, 30 min, pH 7.4, 37 °C, with: Escherichia coli K-235 LPS, 1:5 w/w",,hemolysis,inhibited
Cn1c(N)nc2ncc(-c3ccccc3)cc21,rat primary midbrain neurons,"selective dopaminergic neurotoxicity, refers to: TH+ over MAP2+ neurons",,24 h,,threshold concentration,1 µM
CC(C)C[C@H](NC(=O)[C@H](C)NC(=O)[C@H](CCCCN)NC(=O)[C@H](CCCNC(=N)N)NC(=O)[C@H](Cc1ccc(O)cc1)NC(=O)[C@H](CC(C)C)NC(=O)[C@H](CCCNC(=N)N)NC(=O)[C@H](C)NC(=O)[C@H](C)NC(=O)[C@H](CC(C)C)NC(=O)[C@H](CCCCN)NC(=O)[C@H](C)NC(=O)[C@H](Cc1ccccc1)NC(=O)[C@H](C)NC(=O)[C@@H](N)CCCCN)C(=O)N[C@@H](C)C(=O)N[C@@H](CCCNC(=N)N)C(=O)N[C@@H](CCC(N)=O)C(=O)N[C@@H](CC(C)C)C(=O)NCC(=O)N[C@H](C(=O)N[C@@H](C)C(=O)N[C@@H](C)C(N)=O)C(C)C,human pleural mesothelial cells (CRL-9444),LIVE/DEAD calcein-AM/EthD-1,,"24 h, 37 °C",baseline: untreated,maximum non-lethal concentration,230 µM
CN1C(=O)[C@]23SS[C@@]1(C)C(=O)N2[C@H]1Nc2ccccc2[C@@]1([C@@]12c4ccccc4N[C@@H]1N1C(=O)[C@@]4(C)SS[C@]1(C(=O)N4C)[C@H]2O)[C@@H]3O,MDA-MB-435,"cell growth or viability, SRB",,,,IC50,70 nM
C=C(C[C@H](N)C(=O)O)C(=O)NCc1ccccc1,MCF7,,,24 h,baseline: vehicle,concentration increasing cytotoxicity,10 µM
CC[C@@]12SS[C@]3(C(=O)N1C)[C@@H](O)[C@]1(C45c6ccccc6N[C@@H]4N4C(=O)[C@@]6(CC)SS[C@@]4(C(=O)N6C)[C@H]5O)c4ccccc4N[C@@H]1N3C2=O (stereo partly shown),HT-29,"cell growth or viability, SRB",,,,IC50,40 nM
Cn1c(COP(=O)(NCCBr)NCCBr)cnc1[N+](=O)[O-],cryopreserved human hepatocytes,"RT-PCR, refers to: CYP3A4 mRNA",,"no induction at 1 µM, lower limit",,IndC50,2.5 µM
CCOC(=O)[C@@H](NP(=O)(OCCOCn1cnc2c(=O)[nH]c(N)nc21)Oc1cccc2ccccc12)C(C)C (stereo partly shown),HEL,altered cell morphology,,,,minimal cytotoxic concentration,> 100 µM
RRRRRRRR,HEI-OC1,MTT,peptide,"24 h, rhodamine-conjugated peptide",,maximum non-toxic concentration,0.025 mg/mL
CC(C)OC(=O)[C@H](C)NP(=O)(OCCOCn1cnc2c(=O)[nH]c(N)nc21)Oc1cccc2ccccc12 (stereo partly shown),HEL,altered cell morphology,,,,minimal cytotoxic concentration,> 50 µM
CC(C)C[C@H](NCc1ccc(-c2ccccc2)cc1)C(=O)N[C@@H](Cc1c[nH]c2ccccc12)C(=O)NCc1ccccc1,Vero,"cell morphology, microscopy",,5 (unit not given),,minimum cytotoxic concentration,≥ 20 µM

# Repeated from above:
Substance,cell line,assay,system,setting,how to read,measurement,value
COc1ccccc1/C=N/N=C1\C(=O)Nc2ccccc21,HUVEC,MTT,,"24 and 48 h, 50% cell death",,cytotoxic concentration,> 100 µg/mL
CN1C(=O)[C@]23SS[C@@]1(C)C(=O)N2[C@H]1Nc2ccccc2[C@@]1([C@@]12c4ccccc4N[C@@H]1N1C(=O)[C@@]4(C)SS[C@]1(C(=O)N4C)[C@H]2O)[C@@H]3O,MDA-MB-435,"cell growth or viability, SRB",,,,IC50,70 nM
CC[C@H](C)[C@H](NC(=O)[C@H](CC(=O)O)NC(=O)[C@H](Cc1ccccc1)NC(=O)[C@H](CC(C)C)NC(=O)CN)C(=O)N[C@H](C(=O)N[C@@H](CCCCN)C(=O)N[C@@H](CCCCN)C(=O)N[C@H](C(=O)N[C@H](C(=O)NCC(=O)N[C@@H](C)C(=O)N[C@@H](CC(C)C)C(=O)N[C@@H](CCCCN)C(N)=O)C(C)C)C(C)C)C(C)C,human erythrocytes,,,"1 h, 37 °C, hemolysis ≤5%",,minimal hemolytic concentration,2 µM
